Results pooled from the literature.
Compare with care: the assays were run in different laboratories.

`Cc1ncccc1-c1nc2cc(C(=O)NCCCc3ccccc3)ccc2o1` gave a cytotoxicity efficacy of 0% (Vero-E6; CellTiter-Glo ATP; concentration not given, 72 h, retest 8-point duplicates; relative to: DMSO 0%, hyamine -100%, more negative, more toxic).
`CC(=O)c1c(C)c2cnc(Nc3ccc(C4CCN(CCS(C)(=O)=O)CC4)cn3)nc2n(C2CCCC2)c1=O` gave a Cmax of 0.111 µg/mL (human, dose-escalation trial, plasma; oral, 50 mg twice daily, day 21, multiple doses).
The maximum inhibition of `O=C(O)C(Cl)Cl` is reported as 14.7% (human coronavirus OC43; virus-induced cell killing; MRC-5; screen).
`CO[C@H]1C[C@@H]2CC[C@@H](C)[C@@](O)(O2)C(=O)C(=O)N2CCCC[C@H]2C(=O)O[C@H]([C@H](C)C[C@@H]2CC[C@@H](OC(=O)NCCOCCOCCOCCOCCOCCOCCOCCOCCC(=O)N3CCc4cc(Cn5nc(-c6ccc7oc(N)nc7c6)c6c(N)ncnc65)ccc4C3)[C@H](OC)C2)C[C@@H](O)[C@H](C)/C=C(\C)[C@@H](O)[C@@H](OC)C(=O)[C@H](C)C[C@H](C)/C=C/C=C/C=C/1C` — result for “AEs causing dose modification”: 66.7% (phase 1 dose escalation; advanced solid tumour patients; intravenous, 6 mg weekly, any grade).
Under “patients with adverse event”, `CN1CC[C@@H](c2c(O)cc(O)c3c(=O)cc(-c4ccc(C(F)(F)F)cc4Cl)oc23)[C@@H]1CO` is recorded as 0% (item: Neutropenia; relapsed B-cell malignancies; oral, 100 mg, grade 3-4, intermittent dosing).
The cytotoxicity efficacy of `Cc1cc(C)cc(-c2ccc(CN3CCCC3C(=O)NCc3cccc(F)c3)cc2)c1` (stereo not drawn) is reported as -11.2% (Vero-E6; CellTiter-Glo ATP; concentration not given, 72 h, first round 5-point; relative to: DMSO 0%, hyamine -100%, more negative, more toxic).
With `Cc1cn[nH]c1` the maximum inhibition was 19% (human coronavirus OC43; virus-induced cell killing; MRC-5; screen).
`COc1cc2c(Oc3ccc4[nH]c(C)cc4c3F)ccnc2cc1OCC1(N)CC1` — result for “grade 1 or 2 Proteinuria”: 20% (paediatric recurrent refractory sarcoma; 8 mg/kg).
For `CC(=O)N1CCC(C(=O)N2CCN3C(=O)c4cc(-c5ccccc5)ccc4NC(=O)C3C2)CC1` (stereo not drawn), “revertants per plate” read 42.5 (Salmonella typhimurium; TA98; 500 µg/plate, added: rat liver S9).
For `O=C1c2c(O)c(=O)ccn2N([C@@H]2c3ccccc3SCc3c2ccc(F)c3F)[C@@H]2COCCN12`, the trough concentration was 6.54 ng/mL (BALB/c mouse; subcutaneous, 1 mg/kg q12h).
`O=C(CCc1ccc(CC2CCN(Cc3c[nH]c4ccccc34)CC2)cc1)N1CCCC1` has a cytotoxicity efficacy of 0% (Vero-E6; CellTiter-Glo ATP; concentration not given, 72 h, second round 5-point; relative to: DMSO 0%, hyamine -100%, more negative, more toxic).
`C[C@]1(CO)Cc2ncn(-c3ccc(C#N)c(Cl)c3)c2C(=O)O1` — result for “subjects with drug-related headache”: 0% (human; 80 mg single dose).

For quick reference, copied from above:
`Cc1ncccc1-c1nc2cc(C(=O)NCCCc3ccccc3)ccc2o1` gave a cytotoxicity efficacy of 0% (Vero-E6; CellTiter-Glo ATP; concentration not given, 72 h, retest 8-point duplicates; relative to: DMSO 0%, hyamine -100%, more negative, more toxic).
Under “patients with adverse event”, `CN1CC[C@@H](c2c(O)cc(O)c3c(=O)cc(-c4ccc(C(F)(F)F)cc4Cl)oc23)[C@@H]1CO` is recorded as 0% (item: Neutropenia; relapsed B-cell malignancies; oral, 100 mg, grade 3-4, intermittent dosing).
